# Published values gathered from unrelated publications.
# Numbers after ± are the reported error.
# PPARG ligand-binding domain: Peroxisome proliferator-activated receptor gamma, ligand-binding domain (PPARG, Homo sapiens, UniProt P37231)
# Chain of UniProt P37231 (whole entry, looked up): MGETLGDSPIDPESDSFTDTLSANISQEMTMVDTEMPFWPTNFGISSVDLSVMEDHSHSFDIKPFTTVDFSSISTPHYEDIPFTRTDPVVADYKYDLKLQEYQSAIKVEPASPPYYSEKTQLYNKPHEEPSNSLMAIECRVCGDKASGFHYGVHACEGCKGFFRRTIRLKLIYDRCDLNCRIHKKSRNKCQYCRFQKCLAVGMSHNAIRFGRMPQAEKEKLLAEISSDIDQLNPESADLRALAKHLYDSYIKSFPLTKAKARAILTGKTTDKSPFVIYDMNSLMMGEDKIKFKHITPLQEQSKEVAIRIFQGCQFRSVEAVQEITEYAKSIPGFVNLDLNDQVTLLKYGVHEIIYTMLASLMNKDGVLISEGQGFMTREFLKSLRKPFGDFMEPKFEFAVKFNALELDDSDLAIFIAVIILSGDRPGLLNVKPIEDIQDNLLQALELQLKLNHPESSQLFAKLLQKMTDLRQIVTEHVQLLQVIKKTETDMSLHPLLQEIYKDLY
# Rhomboid protease AarA: Rhomboid protease AarA (Providencia stuartii, UniProt P46116)
# Chain of UniProt P46116 (whole entry, looked up): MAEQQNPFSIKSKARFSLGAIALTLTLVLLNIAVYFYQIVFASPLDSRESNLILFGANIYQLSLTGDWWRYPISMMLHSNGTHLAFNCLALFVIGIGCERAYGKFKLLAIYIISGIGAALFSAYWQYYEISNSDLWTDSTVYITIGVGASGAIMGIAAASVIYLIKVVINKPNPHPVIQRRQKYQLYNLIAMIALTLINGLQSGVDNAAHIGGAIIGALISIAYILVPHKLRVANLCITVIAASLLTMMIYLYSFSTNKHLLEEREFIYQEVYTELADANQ
# ROCK2: Rho-associated protein kinase 2 (ROCK2, Homo sapiens, UniProt O75116)
# Chain of UniProt O75116 (whole entry, looked up): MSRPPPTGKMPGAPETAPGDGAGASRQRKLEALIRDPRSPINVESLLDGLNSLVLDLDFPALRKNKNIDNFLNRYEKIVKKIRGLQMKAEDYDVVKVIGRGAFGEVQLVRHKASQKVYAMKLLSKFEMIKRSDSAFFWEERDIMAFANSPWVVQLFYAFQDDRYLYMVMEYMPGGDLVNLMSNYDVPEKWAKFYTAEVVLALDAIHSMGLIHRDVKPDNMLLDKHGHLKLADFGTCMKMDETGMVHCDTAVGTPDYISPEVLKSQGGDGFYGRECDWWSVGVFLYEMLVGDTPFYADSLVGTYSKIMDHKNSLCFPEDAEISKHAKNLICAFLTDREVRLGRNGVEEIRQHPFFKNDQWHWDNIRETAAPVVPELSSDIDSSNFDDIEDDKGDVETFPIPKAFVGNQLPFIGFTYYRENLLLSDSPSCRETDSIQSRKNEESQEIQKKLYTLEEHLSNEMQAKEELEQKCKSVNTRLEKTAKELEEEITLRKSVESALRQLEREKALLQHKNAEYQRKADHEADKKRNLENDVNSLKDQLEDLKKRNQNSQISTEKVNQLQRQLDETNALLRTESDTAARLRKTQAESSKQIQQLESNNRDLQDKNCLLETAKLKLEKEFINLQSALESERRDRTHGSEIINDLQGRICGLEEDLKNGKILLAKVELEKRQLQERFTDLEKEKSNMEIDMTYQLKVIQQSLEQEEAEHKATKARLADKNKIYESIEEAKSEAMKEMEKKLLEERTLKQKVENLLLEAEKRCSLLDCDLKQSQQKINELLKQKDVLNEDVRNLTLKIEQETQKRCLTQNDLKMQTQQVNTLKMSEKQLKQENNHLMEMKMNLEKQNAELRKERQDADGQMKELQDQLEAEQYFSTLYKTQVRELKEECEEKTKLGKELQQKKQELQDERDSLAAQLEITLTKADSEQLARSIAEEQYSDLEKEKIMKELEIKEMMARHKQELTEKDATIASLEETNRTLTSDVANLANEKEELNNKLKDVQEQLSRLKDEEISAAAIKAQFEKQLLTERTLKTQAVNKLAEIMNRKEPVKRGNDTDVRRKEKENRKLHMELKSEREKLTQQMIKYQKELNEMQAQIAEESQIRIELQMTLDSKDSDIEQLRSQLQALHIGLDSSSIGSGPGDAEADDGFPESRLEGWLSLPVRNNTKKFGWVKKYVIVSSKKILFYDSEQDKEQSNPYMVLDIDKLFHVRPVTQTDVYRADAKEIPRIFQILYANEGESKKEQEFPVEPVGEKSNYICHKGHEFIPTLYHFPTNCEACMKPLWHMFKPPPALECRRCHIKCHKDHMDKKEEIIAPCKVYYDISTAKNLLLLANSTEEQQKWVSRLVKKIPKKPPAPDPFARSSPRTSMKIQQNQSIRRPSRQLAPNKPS
# PPARG: Peroxisome proliferator-activated receptor gamma (PPARG, Homo sapiens, UniProt P37231)
# Chain of UniProt P08172 (whole entry, looked up): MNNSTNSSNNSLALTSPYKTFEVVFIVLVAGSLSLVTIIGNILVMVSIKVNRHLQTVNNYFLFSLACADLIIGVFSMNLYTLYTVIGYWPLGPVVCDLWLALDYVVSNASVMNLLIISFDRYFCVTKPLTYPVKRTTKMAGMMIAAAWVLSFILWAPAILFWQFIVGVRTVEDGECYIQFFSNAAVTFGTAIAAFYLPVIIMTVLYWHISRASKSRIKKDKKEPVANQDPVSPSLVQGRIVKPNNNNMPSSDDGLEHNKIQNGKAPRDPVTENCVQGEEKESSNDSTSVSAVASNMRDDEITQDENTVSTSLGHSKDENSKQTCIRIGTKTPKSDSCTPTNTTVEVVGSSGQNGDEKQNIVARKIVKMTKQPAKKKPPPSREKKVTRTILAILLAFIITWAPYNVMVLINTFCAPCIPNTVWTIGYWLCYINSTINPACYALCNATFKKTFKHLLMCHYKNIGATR
# Chain of UniProt Q13547 (whole entry, looked up): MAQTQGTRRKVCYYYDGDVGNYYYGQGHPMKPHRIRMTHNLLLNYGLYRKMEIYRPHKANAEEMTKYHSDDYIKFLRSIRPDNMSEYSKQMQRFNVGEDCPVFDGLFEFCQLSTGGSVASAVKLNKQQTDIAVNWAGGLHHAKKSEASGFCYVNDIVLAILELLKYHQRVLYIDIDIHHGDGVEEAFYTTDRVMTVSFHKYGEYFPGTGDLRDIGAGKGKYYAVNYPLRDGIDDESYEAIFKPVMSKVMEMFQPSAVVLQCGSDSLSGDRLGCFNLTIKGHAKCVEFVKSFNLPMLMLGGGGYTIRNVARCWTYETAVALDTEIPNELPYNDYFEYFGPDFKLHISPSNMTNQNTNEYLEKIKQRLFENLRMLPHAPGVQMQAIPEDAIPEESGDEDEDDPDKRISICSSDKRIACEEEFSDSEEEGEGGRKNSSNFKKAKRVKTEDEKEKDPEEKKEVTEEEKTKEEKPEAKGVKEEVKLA
# Chain of UniProt Q9H1C0 (whole entry, looked up): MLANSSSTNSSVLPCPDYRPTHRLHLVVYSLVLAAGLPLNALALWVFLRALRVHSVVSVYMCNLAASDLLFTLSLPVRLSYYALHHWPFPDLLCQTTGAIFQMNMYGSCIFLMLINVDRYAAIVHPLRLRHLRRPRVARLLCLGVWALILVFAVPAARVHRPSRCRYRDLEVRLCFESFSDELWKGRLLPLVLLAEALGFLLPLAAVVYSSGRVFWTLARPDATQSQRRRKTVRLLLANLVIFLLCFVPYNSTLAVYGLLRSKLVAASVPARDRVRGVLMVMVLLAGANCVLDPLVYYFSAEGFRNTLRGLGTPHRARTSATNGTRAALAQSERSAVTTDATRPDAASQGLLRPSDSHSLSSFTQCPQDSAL
# Chain of UniProt P28482 (whole entry, looked up): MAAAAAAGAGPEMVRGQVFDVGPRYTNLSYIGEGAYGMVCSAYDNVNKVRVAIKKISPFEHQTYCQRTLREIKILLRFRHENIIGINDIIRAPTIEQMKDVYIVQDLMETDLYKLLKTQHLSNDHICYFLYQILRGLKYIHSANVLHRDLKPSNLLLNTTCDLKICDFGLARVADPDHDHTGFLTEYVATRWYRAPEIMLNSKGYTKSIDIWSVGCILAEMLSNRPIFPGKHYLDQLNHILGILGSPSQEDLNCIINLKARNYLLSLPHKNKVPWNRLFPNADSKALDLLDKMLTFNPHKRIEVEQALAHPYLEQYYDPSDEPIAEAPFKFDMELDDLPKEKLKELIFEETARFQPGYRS
# Chain of UniProt P43358 (whole entry, looked up): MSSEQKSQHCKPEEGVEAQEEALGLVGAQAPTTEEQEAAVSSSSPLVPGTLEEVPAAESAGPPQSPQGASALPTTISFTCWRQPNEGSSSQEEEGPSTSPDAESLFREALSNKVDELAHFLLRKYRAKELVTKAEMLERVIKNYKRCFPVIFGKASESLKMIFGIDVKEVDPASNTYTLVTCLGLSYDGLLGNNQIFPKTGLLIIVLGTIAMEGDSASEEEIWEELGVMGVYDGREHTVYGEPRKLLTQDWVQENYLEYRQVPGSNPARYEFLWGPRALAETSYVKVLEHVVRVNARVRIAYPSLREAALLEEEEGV
SMILES,target,test,test system,conditions,IC50 [µM]
Cc1c(Cc2ccc(OC(C)(C)C(=O)O)cc2)c2ccc(C(=O)N[C@@H](C)c3ccc(C(C)(C)C)cc3)cc2n1C,PPARG ligand-binding domain,"reporter gene, luciferase reporter","HEK293T, Gal4-PPARγ LBD",,33.5
Cc1nc2c(F)cc(-c3nc(Nc4ccc(C(=O)NCCCCCC(=O)NO)cc4)ncc3F)cc2n1C(C)C,"Histone deacetylase 1 (HDAC1, Homo sapiens, UniProt Q13547)","enzyme activity, inhibitor",,,0.0026
O=C(Cc1ccc(OCc2ccccc2)cc1)NC1(C(=O)O)CCN(C(=O)c2ccc(-c3cccc(Cl)c3)cc2)CC1,"Lysophosphatidic acid receptor 5 (LPAR5, Homo sapiens, UniProt Q9H1C0)","antagonist, GloSensor cAMP",,,> 10
O=C1Nc2c(Br)cccc2/C1=C1/Nc2ccccc2C1=NO,"Mitogen-activated protein kinase 1 (MAPK1, Homo sapiens, UniProt P28482)",,,,> 10
O=C(Nc1ccccc1OCCc1ccccc1)C(C(F)(F)F)C(F)(F)F,Rhomboid protease AarA,"enzyme activity, inhibitor, fluorescence",,,1.9
COc1cccc([C@H](C)NC(=O)c2ccc3c(Cc4cccc(OC(C)(C)C(=O)O)c4)c(C)n(C)c3c2)c1,PPARG ligand-binding domain,"reporter gene, luciferase reporter","HEK293T, Gal4-PPARγ LBD",,196
O=C(NCc1ccc(Cl)cc1)C(C(F)(F)F)C(F)(F)F,Rhomboid protease AarA,"enzyme activity, inhibitor, fluorescence",,,5
CCN(CC)CC(=O)Nc1cccc(-n2cc(-c3ccc4ccc(-c5cn(-c6cccc(NC(=O)CN(CC)CC)c6)nn5)cc4c3)nn2)c1,ROCK2,"enzyme activity, inhibitor",,,7.2
Cc1c(Cc2ccc(OC(C)C(=O)O)cc2)c2ccc(C(=O)N[C@@H](C)c3ccc(C4CC4)cc3)cc2n1C (stereo partly shown),PPARG,"ligand displacement, TR-FRET",,,0.057
Cc1ccc(C[C@H]2CON=C(c3cc(C)nnc3Oc3cccc(Cl)c3F)N2)c(Cl)c1,"serine palmitoyltransferase (Zymoseptoria tritici, UniProt F9X349+F9XMN6)",,,,0.011 ± 0.002
Cc1c(Cc2ccc(Cl)c(O[C@@H](C)C(=O)O)c2)c2ccc(C(=O)N[C@@H](C)c3cc(F)cc(C(C)(C)C)c3)cc2n1C,PPARG,"ligand displacement, TR-FRET",,,0.00511
CC[C@H](C)[C@@H]1NC(=O)[C@H](Cc2ccc(O)cc2)NC(=O)CCSCCCSCCNC(=O)[C@H](Cc2c[nH]cn2)NC(=O)[C@H](Cc2ccc(O)cc2)NC(=O)[C@H](CC(=O)O)NC(=O)[C@H](Cc2ccc(O)cc2)NC(=O)[C@H](CC(C)C)NC(=O)[C@H](CCCNC(=N)N)NC1=O,"Melanoma-associated antigen 4, MAGE homology domain (Homo sapiens, UniProt P43358)","binding, inhibitor, TR-FRET displacement",,together with: Alexa647-MTP-1,0.0192 ± 0.0018
Cc1nn(-c2cccc(N)c2)c(=O)c2cnc(Nc3ccc(N4CCNCC4)cc3)nc12,ROCK2,"enzyme activity, inhibitor",,,> 10
Cc1ccc(S(=O)(=O)N2CC(NC(=O)c3ccc(F)cc3)C2=O)cc1 (stereo not shown),Rhomboid protease AarA,"enzyme activity, inhibitor, fluorescence",,,71
Cc1c(Cc2cccc(OC(C)(C)C(=O)O)c2)c2ccc(C(=O)N[C@@H](C)c3cccc(Cl)c3)cc2n1C,PPARG ligand-binding domain,"reporter gene, luciferase reporter","HEK293T, Gal4-PPARγ LBD",,537
O=C(CCNC(=O)CNC(=O)CC(c1ccccc1)(c1ccccc1)c1ccccc1)NC[C@@H]1CCCN(C(=O)c2ccc(F)cc2)C1,"Muscarinic acetylcholine receptor M2 (CHRM2, Homo sapiens, UniProt P08172)","ligand displacement, radioligand",,cell membranes,> 30

# Repeated from above:
SMILES,target,test,test system,conditions,IC50 [µM]
CC[C@H](C)[C@@H]1NC(=O)[C@H](Cc2ccc(O)cc2)NC(=O)CCSCCCSCCNC(=O)[C@H](Cc2c[nH]cn2)NC(=O)[C@H](Cc2ccc(O)cc2)NC(=O)[C@H](CC(=O)O)NC(=O)[C@H](Cc2ccc(O)cc2)NC(=O)[C@H](CC(C)C)NC(=O)[C@H](CCCNC(=N)N)NC1=O,"Melanoma-associated antigen 4, MAGE homology domain (Homo sapiens, UniProt P43358)","binding, inhibitor, TR-FRET displacement",,together with: Alexa647-MTP-1,0.0192 ± 0.0018
O=C1Nc2c(Br)cccc2/C1=C1/Nc2ccccc2C1=NO,"Mitogen-activated protein kinase 1 (MAPK1, Homo sapiens, UniProt P28482)",,,,> 10
